Measured values from different studies.
Each numbered part is a random draw from the data of one study; scales do not carry over between parts. Values joined by “and” are separate records of one study, mostly repeats; a detail may differ.
UniProt Q9P1W9, sequence (whole entry, looked up): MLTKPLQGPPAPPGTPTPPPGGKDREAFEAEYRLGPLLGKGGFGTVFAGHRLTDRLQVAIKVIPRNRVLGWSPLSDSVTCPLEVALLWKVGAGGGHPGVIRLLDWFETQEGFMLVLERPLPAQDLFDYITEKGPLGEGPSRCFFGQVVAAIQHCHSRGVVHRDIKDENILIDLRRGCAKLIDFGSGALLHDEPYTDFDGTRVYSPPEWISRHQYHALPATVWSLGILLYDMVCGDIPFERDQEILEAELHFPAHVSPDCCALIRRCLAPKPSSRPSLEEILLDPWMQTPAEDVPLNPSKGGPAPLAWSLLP
UniProt Q8IY84, sequence (whole entry, looked up): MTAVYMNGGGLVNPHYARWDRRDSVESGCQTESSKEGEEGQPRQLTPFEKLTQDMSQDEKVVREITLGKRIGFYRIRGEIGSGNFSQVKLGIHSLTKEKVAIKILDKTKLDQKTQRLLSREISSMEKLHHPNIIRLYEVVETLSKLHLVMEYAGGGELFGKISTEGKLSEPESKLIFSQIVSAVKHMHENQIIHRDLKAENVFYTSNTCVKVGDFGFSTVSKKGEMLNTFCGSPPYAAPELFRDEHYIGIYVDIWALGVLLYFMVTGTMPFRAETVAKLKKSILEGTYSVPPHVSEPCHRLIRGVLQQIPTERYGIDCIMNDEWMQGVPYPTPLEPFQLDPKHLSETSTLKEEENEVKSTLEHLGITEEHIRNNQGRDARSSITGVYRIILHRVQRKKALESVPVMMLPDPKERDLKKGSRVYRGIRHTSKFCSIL
UniProt Q13705, sequence (whole entry, looked up): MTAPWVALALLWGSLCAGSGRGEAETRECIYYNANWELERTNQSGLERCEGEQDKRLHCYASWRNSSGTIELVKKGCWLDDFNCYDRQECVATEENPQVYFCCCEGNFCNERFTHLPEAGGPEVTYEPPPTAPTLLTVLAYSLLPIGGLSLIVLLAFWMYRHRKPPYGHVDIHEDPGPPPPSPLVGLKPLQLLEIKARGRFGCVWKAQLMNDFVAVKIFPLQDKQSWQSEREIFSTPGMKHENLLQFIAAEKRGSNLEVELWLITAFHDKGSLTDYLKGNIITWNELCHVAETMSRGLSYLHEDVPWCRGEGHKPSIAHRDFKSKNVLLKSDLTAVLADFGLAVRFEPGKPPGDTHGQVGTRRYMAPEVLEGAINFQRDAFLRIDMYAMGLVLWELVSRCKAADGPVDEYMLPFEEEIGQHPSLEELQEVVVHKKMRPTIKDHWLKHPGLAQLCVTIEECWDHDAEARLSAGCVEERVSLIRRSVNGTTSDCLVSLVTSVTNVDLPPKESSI
UniProt P10721, sequence (whole entry, unmodified, looked up): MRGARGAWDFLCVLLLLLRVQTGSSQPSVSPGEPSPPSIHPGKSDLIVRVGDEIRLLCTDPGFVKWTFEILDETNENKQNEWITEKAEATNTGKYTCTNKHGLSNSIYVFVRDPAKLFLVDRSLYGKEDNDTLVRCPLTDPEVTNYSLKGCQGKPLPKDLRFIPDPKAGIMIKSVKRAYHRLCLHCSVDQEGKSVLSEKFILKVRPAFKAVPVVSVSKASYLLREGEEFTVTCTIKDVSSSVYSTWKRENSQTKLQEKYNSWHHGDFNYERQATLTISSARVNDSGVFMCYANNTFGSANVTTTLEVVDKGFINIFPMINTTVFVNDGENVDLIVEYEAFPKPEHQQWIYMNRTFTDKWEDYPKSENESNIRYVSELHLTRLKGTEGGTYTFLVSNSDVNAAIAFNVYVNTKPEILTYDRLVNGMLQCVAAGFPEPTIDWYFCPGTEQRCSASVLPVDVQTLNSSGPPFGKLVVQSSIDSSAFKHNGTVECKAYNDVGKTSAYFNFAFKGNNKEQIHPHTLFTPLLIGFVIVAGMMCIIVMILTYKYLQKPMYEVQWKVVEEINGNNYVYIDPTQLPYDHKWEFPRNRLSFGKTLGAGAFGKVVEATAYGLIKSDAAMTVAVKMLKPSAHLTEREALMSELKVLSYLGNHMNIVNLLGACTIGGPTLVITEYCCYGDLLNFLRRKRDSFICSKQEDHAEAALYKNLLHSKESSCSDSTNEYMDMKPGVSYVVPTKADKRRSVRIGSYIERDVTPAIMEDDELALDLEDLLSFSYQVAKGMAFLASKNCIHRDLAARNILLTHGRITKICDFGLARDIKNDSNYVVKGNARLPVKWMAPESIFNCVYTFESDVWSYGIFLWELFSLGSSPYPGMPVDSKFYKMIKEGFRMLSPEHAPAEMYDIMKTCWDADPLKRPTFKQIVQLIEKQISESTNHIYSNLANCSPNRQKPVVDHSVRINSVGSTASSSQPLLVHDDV
UniProt Q14289, sequence (whole entry, looked up): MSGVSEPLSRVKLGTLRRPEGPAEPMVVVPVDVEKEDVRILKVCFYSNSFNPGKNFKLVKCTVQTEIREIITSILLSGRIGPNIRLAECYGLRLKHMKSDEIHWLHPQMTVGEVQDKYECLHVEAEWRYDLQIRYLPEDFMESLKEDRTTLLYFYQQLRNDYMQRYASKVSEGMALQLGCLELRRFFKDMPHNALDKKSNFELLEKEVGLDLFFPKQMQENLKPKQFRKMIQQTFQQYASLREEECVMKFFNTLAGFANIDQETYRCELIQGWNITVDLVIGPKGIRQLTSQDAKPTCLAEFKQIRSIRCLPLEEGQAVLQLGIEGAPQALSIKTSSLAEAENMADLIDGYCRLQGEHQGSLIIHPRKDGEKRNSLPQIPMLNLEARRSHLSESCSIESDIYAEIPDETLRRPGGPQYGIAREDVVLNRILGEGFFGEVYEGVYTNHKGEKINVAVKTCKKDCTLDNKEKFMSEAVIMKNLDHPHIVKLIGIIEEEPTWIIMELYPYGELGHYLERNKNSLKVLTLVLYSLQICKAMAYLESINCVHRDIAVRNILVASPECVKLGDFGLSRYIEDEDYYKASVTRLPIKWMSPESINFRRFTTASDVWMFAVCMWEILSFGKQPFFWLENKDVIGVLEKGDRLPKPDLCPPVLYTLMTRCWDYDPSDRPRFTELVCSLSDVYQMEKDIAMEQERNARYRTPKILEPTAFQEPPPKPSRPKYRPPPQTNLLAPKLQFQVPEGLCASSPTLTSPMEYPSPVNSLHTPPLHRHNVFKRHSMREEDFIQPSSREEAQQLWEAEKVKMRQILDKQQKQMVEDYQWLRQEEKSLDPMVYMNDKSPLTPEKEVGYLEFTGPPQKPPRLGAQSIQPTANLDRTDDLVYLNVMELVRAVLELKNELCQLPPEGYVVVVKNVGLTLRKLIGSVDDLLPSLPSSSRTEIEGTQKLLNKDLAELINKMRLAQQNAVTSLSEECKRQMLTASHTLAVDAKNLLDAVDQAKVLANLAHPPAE

Study 1
SMILES: O=C(NCc1ncc(C(F)(F)F)cc1Cl)c1ccc2c(c1)C1(CCS(=O)(=O)CC1)[C@H](C1CC1)N2S(=O)(=O)c1ccc(F)cc1
Technique: competition with immobilised ligand
Tested at: 1 µM
| target | test | remaining binding [%] |
| --- | --- | --- |
| KIT (Homo sapiens, UniProt P10721, V559D) | cell-free assay | 100 |
| FLT3 (Homo sapiens, UniProt P36888) | cell-free assay | 100 |
| HIPK1 (Homo sapiens, UniProt Q86Z02) | cell-free assay | 83 |
| MAP4K2 (Homo sapiens, UniProt Q12851) | cell-free assay | 100 |
| PRKD1 (Homo sapiens, UniProt Q15139) | cell-free assay | 93 |
| DAPK3 (Homo sapiens, UniProt O43293) | cell-free assay | 90 |
| NIM1K (Homo sapiens, UniProt Q8IY84) | cell-free assay | 83 |
| SLK (Homo sapiens, UniProt Q9H2G2) | cell-free assay | 100 |
| EGFR (Homo sapiens, UniProt P00533, G719C) | cell-free assay | 78 |
| ACVR2B (Homo sapiens, UniProt Q13705) | binding | 90 |
| CDK17 (Homo sapiens, UniProt Q00537) | cell-free assay | 100 |
| PIM2 (Homo sapiens, UniProt Q9P1W9) | cell-free assay | 94 |
| PTK2B (Homo sapiens, UniProt Q14289) | cell-free assay | 100 |
| Tyrosine-protein kinase JAK1, JH1 (JAK1, Homo sapiens, UniProt P23458) | cell-free assay | 86 |

Study 2
Host: human
Matrix: microsomes or S9
Tested at: 2 µM
Time: 0.5 h
| Compound | remaining compound [%] |
| --- | --- |
| O=C(NCCc1ccccc1)Nc1cnc(O)nc1O | 81.5 |
| O=C(CCC1N=C(O)N(Cc2ccco2)C1=O)Nc1ccc2cc[nH]c2c1 (stereo not drawn) | 97.4 |
| COc1ccnc(Cn2cnc(Cl)c2Cl)c1OC | 73.7 |
| CC(C)S(=O)(=O)CCCn1cc(Br)ccc1=O | > 99.9 |

Study 3
Target: Beta-1 adrenergic receptor (ADRB1, Homo sapiens, UniProt P08588)
UniProt P08588, sequence (whole entry, looked up): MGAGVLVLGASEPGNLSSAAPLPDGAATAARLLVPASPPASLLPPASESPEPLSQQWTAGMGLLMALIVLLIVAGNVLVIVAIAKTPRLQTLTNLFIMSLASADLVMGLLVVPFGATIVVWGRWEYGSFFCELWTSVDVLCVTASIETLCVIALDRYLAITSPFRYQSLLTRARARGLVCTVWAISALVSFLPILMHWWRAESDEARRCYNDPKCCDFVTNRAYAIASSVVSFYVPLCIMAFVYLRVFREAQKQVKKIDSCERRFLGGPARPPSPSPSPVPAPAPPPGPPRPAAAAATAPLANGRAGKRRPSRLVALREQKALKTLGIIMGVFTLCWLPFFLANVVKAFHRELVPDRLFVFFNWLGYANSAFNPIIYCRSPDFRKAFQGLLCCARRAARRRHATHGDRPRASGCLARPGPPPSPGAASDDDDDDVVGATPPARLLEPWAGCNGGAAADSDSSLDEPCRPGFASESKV
Action: antagonist
| Structure (SMILES) | IC50 [µM] |
| --- | --- |
| CN(c1ccccc1)c1cc(=O)c2ccnc(NC3CCOCC3)c2o1 | ≥ 100 |
| Cc1ccc(-c2cc(C(=O)Nc3ccc([S+](=O)([O-])NCc4nccs4)cc3)c3ccccc3n2)cc1C | 22.4 |
| CN(C)c1cccc(-c2ncc3c(n2)OCCN(Cc2ccccc2)C3=O)c1 | ≥ 100 |
| O=C(Cc1ccccc1)Nc1ccc([C@@H](O)[C@H]2COCC(=O)N2Cc2ccccc2F)cc1 | ≥ 100 |
| Cc1noc2c(-c3cccnc3NC3CCN(C)CC3)cc(-c3ccccc3)nc12 | ≥ 100 |

Study 4
Cell line: mouse MPNST tumor cells
Technique: high-content immunofluorescence imaging
Measured: nuclear SOX9
Tested at: 10 µM
Time: 12 h
Setting: mean of 2 replicates
Relative to: DMSO control
Reading: higher = more nuclear SOX9
| SMILES | nuclear SOX9 intensity |
| --- | --- |
| COc1ccc(CC(=O)NCc2ccccc2-c2ccccc2C(=O)NCc2ccc(F)cc2F)cc1 | 106 % of DMSO |
| c1ccc(CC2=NCCN2)cc1 | 96.8 % of DMSO and 109 % of DMSO |
| CNc1nc(Nc2ccc(C(=O)N3CCOCC3)cc2OC)nc2[nH]cc(Cl)c12 | 82.7 % of DMSO |
| CC[C@H](NC(=O)c1c(C)c(-c2ccccc2)nc2ccccc12)c1ccccc1 | 111 % of DMSO |

Study 5
Organism: Sarcocystis neurona
Read-out: parasite growth
Tested at: concentration not given
Setting: second screen
Relative to: untreated
| Structure (SMILES) | log2 fold change |
| --- | --- |
| CC[N+](C)(CC)CCOC(=O)C(O)(c1ccccc1)C1CCCCC1.[Br-] (stereo not drawn) | 0.33 |
| Nc1nc(Cl)nc2c1ncn2[C@@H]1O[C@H](CO)[C@@H](O)[C@H]1O | 0.32 |
| CC[C@@H](CO)NCCN[C@@H](CC)CO | 0.32 |

Repeated from above (study 2):
| Compound | remaining compound [%] |
| --- | --- |
| O=C(NCCc1ccccc1)Nc1cnc(O)nc1O | 81.5 |
| O=C(CCC1N=C(O)N(Cc2ccco2)C1=O)Nc1ccc2cc[nH]c2c1 (stereo not drawn) | 97.4 |
| COc1ccnc(Cn2cnc(Cl)c2Cl)c1OC | 73.7 |
| CC(C)S(=O)(=O)CCCn1cc(Br)ccc1=O | > 99.9 |
